# Measurements pooled from the literature.
# Compare with care: the assays were run in different laboratories.
# Action: inhibitor
# Tested at: 10 µM
# BACE1: Beta-secretase 1 (BACE1, Homo sapiens, UniProt P56817)
# Sequence of UniProt P56817 (whole entry, looked up): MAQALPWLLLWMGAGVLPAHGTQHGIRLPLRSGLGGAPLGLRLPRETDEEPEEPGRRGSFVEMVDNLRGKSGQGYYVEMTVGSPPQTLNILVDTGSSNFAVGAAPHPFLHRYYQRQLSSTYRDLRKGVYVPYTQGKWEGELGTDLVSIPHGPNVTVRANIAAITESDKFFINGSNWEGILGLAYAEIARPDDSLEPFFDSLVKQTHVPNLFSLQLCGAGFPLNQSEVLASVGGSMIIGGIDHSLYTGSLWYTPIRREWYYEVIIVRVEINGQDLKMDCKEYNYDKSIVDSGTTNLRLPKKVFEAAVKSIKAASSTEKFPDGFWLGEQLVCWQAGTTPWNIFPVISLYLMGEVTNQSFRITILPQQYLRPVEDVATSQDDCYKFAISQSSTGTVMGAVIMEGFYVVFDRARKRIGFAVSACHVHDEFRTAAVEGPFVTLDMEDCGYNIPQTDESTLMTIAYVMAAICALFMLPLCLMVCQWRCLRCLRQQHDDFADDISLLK
# ENPP2: Autotaxin (ENPP2, Homo sapiens, UniProt Q13822)
# MAOB: Amine oxidase [flavin-containing] B (MAOB, Homo sapiens, UniProt P27338)
# Sequence of UniProt P27338 (whole entry, looked up): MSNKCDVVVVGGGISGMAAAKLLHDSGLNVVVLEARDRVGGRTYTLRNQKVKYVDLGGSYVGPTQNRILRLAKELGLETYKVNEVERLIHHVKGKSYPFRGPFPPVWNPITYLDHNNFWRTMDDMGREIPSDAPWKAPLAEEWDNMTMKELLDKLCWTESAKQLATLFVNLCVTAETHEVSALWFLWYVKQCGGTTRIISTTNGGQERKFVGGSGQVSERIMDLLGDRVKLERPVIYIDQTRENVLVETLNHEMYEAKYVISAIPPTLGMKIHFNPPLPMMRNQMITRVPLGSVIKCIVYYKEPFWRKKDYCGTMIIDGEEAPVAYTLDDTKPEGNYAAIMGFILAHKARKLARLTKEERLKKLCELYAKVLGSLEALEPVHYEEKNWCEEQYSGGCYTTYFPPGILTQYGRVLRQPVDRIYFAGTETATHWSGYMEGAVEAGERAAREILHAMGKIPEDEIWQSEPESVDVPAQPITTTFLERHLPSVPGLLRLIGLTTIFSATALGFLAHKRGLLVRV
Structure (SMILES),target,effect on,technique,time,with,relative to,remaining activity [%]
O=C(/C=C/c1cccc(Br)c1)c1cc2ccccc2oc1=O,BACE1,enzyme activity,fluorescence,,,,92.8
CCCCCCCCCCCCCCCc1ccc(C(O)P(=O)(O)O)cc1 (racemic),ENPP2,,,2 h,FS-3 1 µM,control,9.2
NC(=O)N/N=C/c1ccccc1OCc1ccccc1,MAOB,enzyme activity,absorbance,,,,92
O=C(/C=C/c1cccc(F)c1)c1cc2ccccc2oc1=O,BACE1,enzyme activity,fluorescence,,,,80.8
NC(=S)N/N=C/c1ccc(OCc2ccccc2)cc1,MAOB,enzyme activity,absorbance,,,,0.91
O=C(/C=C/c1ccc(Br)cc1)c1ccc(N2CCNCC2)cc1,BACE1,enzyme activity,fluorescence,,,,105
O=C(/C=C/c1cccc(Cl)c1)c1cc2ccccc2oc1=O,BACE1,enzyme activity,fluorescence,,,,91
O=C(/C=C/c1ccc(C(F)(F)F)cc1)c1ccc(N2CCNCC2)cc1,BACE1,enzyme activity,fluorescence,,,,52.2
CCCCCCCCCCCCCCCc1ccc(C(Br)P(=O)(O)O)cc1 (racemic),ENPP2,,,2 h,FS-3 1 µM,control,60.1
COc1ccc(/C=C/C(=O)c2ccc(N3CCNCC3)cc2)cc1,BACE1,enzyme activity,fluorescence,,,,28.9
CCCCCCCCCCCCCCCc1ccc(C(Cl)P(=O)(O)O)cc1 (racemic),ENPP2,,,2 h,FS-3 1 µM,control,118

# Excerpt of the above:
Structure (SMILES),target,effect on,technique,time,with,relative to,remaining activity [%]
NC(=O)N/N=C/c1ccccc1OCc1ccccc1,MAOB,enzyme activity,absorbance,,,,92
